Experimental data from different studies.
Compare with care: the assays were run in different laboratories. “And” joins repeats or separate records; there may be more than shown. ± gives the spread as reported.
UniProt P42866, sequence (whole entry, looked up): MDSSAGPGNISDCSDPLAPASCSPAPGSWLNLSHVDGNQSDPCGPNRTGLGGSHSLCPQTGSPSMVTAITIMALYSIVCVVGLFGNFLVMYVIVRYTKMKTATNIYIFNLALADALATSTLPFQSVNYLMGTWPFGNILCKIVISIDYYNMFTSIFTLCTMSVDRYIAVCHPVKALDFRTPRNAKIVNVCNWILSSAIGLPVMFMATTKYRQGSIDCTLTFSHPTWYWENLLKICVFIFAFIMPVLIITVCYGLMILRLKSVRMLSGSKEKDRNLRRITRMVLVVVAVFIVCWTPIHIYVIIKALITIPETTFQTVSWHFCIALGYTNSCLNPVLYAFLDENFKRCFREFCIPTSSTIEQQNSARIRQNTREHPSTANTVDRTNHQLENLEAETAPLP
UniProt P27361, sequence (whole entry, looked up): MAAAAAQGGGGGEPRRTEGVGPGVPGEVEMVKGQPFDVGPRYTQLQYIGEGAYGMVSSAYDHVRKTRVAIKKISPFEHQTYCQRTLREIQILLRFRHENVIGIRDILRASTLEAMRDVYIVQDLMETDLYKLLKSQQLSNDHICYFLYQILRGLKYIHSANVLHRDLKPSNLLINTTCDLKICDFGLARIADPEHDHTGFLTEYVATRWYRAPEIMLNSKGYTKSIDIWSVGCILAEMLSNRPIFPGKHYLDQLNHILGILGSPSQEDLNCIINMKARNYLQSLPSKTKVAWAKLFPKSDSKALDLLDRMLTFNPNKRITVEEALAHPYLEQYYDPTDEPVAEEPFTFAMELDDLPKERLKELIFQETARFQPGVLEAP
UniProt Q06520, sequence (whole entry, looked up): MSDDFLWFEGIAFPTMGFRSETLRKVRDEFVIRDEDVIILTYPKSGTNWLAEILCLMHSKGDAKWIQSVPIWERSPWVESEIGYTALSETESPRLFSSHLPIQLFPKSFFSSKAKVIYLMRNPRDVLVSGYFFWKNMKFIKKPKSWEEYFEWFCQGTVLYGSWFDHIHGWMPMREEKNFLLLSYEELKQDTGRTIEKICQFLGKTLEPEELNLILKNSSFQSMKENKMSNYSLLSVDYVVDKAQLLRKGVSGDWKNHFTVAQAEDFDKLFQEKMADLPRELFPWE
UniProt P09690, sequence (whole entry, looked up): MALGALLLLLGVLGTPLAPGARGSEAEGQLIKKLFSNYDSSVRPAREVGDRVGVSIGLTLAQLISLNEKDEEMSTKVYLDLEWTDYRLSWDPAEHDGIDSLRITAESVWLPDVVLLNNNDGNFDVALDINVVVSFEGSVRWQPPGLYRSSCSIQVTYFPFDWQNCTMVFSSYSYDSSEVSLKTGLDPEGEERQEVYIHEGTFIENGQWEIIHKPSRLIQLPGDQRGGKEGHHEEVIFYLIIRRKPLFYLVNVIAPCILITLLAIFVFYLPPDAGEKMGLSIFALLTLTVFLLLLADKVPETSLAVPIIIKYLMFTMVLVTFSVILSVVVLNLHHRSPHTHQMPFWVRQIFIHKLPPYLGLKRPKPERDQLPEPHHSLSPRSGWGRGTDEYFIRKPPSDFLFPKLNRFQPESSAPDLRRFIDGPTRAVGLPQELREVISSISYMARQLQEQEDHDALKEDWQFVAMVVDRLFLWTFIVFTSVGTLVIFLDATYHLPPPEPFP
UniProt P20782, sequence (whole entry, looked up): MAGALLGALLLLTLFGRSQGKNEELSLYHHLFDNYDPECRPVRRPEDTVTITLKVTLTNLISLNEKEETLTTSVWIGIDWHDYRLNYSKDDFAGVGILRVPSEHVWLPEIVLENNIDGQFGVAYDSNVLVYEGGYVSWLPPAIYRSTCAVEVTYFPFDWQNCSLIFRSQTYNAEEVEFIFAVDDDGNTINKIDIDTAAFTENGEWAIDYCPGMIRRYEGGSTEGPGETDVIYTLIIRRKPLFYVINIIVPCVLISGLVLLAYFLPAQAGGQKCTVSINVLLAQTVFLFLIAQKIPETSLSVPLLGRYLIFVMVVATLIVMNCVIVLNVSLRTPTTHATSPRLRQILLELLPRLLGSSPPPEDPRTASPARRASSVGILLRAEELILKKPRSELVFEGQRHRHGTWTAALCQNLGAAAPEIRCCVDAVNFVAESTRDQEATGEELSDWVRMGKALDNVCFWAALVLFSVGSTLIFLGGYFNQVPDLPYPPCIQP
UniProt P07947, sequence (whole entry, looked up): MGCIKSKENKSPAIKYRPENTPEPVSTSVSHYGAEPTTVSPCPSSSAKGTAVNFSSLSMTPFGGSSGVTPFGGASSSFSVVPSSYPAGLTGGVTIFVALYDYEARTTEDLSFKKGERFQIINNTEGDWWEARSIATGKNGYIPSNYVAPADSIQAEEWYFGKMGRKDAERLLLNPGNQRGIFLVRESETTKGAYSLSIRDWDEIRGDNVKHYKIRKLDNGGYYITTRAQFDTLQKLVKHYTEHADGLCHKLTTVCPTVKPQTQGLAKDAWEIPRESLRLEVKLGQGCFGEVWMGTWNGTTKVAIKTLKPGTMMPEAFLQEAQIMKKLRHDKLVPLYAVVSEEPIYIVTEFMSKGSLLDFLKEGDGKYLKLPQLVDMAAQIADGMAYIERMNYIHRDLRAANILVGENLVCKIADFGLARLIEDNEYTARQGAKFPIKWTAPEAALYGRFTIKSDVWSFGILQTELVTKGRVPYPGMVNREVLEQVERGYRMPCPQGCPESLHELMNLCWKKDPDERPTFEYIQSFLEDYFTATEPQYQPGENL
UniProt P00942, sequence (whole entry, unmodified, looked up): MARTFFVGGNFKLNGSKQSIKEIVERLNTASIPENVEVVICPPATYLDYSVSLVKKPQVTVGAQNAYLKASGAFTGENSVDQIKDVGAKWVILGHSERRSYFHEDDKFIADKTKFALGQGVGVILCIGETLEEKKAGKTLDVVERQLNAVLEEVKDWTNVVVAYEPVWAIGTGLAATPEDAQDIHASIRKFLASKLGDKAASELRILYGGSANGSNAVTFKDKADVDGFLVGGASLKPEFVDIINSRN
UniProt P21553, sequence (whole entry, looked up): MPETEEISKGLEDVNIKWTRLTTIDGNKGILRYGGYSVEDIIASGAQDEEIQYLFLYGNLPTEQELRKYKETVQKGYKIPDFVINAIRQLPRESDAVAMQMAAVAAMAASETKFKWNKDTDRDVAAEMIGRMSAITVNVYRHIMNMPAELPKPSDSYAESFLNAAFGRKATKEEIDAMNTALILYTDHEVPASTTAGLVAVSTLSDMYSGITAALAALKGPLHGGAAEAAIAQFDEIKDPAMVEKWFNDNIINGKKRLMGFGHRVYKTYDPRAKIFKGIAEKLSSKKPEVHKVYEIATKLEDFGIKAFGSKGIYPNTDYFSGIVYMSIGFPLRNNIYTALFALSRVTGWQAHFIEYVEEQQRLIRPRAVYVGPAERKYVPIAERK
UniProt Q13557, sequence (whole entry, looked up): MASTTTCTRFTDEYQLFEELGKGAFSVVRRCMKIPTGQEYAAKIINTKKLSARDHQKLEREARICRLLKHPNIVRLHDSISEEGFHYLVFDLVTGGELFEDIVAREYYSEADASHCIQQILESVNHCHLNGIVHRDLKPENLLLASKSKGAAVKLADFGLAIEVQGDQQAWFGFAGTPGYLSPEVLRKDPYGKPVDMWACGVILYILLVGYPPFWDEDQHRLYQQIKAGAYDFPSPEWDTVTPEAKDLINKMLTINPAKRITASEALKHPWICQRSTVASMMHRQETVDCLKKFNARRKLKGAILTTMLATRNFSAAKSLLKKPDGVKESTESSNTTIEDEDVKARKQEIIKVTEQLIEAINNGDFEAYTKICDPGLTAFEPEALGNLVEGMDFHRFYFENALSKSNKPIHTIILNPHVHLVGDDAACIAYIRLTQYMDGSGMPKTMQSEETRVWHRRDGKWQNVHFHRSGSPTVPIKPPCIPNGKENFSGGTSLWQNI
UniProt P02716, sequence (whole entry, looked up): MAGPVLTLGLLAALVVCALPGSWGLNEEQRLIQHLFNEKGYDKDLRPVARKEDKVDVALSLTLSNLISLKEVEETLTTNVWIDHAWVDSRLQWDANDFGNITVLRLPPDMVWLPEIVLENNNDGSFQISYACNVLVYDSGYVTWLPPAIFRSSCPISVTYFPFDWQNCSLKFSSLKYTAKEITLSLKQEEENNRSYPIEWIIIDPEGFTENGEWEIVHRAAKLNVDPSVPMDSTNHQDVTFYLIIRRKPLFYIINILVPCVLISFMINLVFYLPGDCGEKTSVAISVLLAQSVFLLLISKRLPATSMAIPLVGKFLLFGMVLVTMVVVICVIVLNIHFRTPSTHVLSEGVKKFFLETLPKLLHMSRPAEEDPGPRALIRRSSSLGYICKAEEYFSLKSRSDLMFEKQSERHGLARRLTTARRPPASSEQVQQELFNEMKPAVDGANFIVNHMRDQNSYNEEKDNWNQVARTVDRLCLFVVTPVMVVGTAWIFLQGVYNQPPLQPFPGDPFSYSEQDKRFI
UniProt P04756, sequence (whole entry, looked up): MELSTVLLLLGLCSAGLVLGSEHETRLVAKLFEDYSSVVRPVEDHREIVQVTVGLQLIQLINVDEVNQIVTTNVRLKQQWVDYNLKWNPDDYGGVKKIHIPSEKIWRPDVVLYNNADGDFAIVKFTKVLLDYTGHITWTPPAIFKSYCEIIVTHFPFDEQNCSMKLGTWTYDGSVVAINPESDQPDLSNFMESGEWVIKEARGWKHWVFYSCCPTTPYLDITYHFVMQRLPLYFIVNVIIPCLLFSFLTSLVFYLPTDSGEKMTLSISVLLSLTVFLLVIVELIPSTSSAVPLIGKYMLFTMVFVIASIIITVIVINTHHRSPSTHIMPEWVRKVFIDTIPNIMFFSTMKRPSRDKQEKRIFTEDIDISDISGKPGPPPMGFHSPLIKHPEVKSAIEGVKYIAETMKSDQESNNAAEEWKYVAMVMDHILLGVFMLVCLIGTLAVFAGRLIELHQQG

Structure (SMILES) = C[C@@H](NC(=O)[C@@H](N)Cc1ccc(O)cc1)C(=O)NCC(=O)N(C)[C@@H](Cc1ccccc1)C(=O)NCCO; target = Oprm1 (Mus musculus, UniProt P42866); assay = agonist; system = mouse spinal cord membranes; conditions = 3.16 µM; how to read = baseline: baseline; quantity = GTPγS binding; value = 33.7% and 39.7% and 35.8% and 29.6% and 40.9% and 39.3% and 37.1% and 29.3%
Structure (SMILES) = [2H]c1c([2H])c([C@]2([2H])CCCN2C(=O)C(C)(C)Oc2ccc3cn[nH]c3c2)c([2H])c([2H])c1C([2H])([2H])[2H]; target = STK4 (Homo sapiens, UniProt Q13043); assay = KINOMEscan; conditions = 1 µM; how to read = baseline: DMSO control; quantity = remaining binding; value = 78%
Structure (SMILES) = C[N+]1(C)CCN(c2cccc(Cl)c2)CC1.[I-]; target = Nicotinic acetylcholine receptor alpha1/beta1/epsilon/delta (Mus musculus, UniProt P02716+P04756+P09690+P20782); assay = ion current, inhibitor, two-electrode voltage clamp; system = Xenopus oocytes; conditions = 30 µM, after co-application, unit not given, together with: ACh 30 µM; how to read = baseline: ACh alone; quantity = ACh response; value = 0.694 ± 0.186
Structure (SMILES) = O=C(C1CCOCC1)N1CC(=O)N2CCc3ccccc3[C@@H]2C1; target = TRPM channel TRPM_PZQ (Schistosoma mansoni, UniProt A0A5K4F0X5); assay = agonist; system = HEK293 cells transfected; how to read = baseline: (R)-praziquantel; quantity = fold change in EC50; value = ~16 fold
Structure (SMILES) = COc1ccc(N2C(=O)N(c3c(C)cccc3Cl)Cc3cnc(Nc4ccc(C5CCN(C)CC5)cc4OC)nc32)nc1; target = CAMK2D (Homo sapiens, UniProt Q13557); assay = kinase activity; conditions = 0.5 µM; quantity = inhibition; value = 4%
Structure (SMILES) = CC(=O)SCCNC(=O)CCNC(=O)[C@H](O)C(C)(C)COP(=O)(O)OP(=O)(O)OC[C@H]1O[C@@H](n2cnc3c(N)ncnc32)[C@H](O)[C@@H]1OP(=O)(O)O; target = gltA (Thermoplasma acidophilum, UniProt P21553); assay = steady-state turnover, substrate; conditions = saturating, together with: oxaloacetate saturating; quantity = kcat; value = 6.8 s⁻¹
Structure (SMILES) = C[C@H]1CN(c2n[nH]c3nc(N[C@H]4CC[C@H](NS(=O)(=O)CCC(F)(F)F)CC4)ncc23)CCO1; target = Cysteine--tRNA ligase, cytoplasmic (Homo sapiens, UniProt P49589); assay = Kinobeads competition, measured: CARS; conditions = 0.16 µM, unit not given; how to read = baseline: vehicle; quantity = remaining binding; value = 1.09
Structure (SMILES) = Clc1cccc(COc2ccccc2CNCc2ccncc2)c1; target = Aminoglycoside N(3)-acetyltransferase IV (aacC4, Salmonella sp, UniProt P08988); assay = neomycin acetylation, inhibitor; conditions = together with: neomycin; quantity = highest concentration without inhibition; value = > 200 µM
Structure (SMILES) = Oc1c(Cl)cc(-c2ccccc2F)cc1Cl; target = SULT2A1 (Homo sapiens, UniProt Q06520); assay = substrate; conditions = pH 7.0, 37 °C, together with: PAPS 200 µM; quantity = Vmax; value = 69 nmol/min/mg
Structure (SMILES) = CN(C(=O)n1cnc(-c2ccc[n+]([O-])c2)c1)C1CCCCC1; target = muscarinic receptor, rat; assay = binding; conditions = 50 µM, together with: [3H]oxotremorine M; quantity = inhibition; value = -16%
Structure (SMILES) = CCCCC/C=C\C/C=C\C/C=C\C/C=C\CCCC(=O)NCCO; target = Trpv1 (Mus musculus, UniProt Q704Y3, T551V); assay = patch clamp; quantity = Hill coefficient; value = 2.74 ± 0.75
Structure (SMILES) = CN1CCN(c2cc(-c3ccncc3)c(-c3ccc4ccccc4c3)nn2)CC1; target = ADRA1B (Homo sapiens, UniProt P35368); assay = agonist, FLIPR; conditions = 12.5 µM; quantity = activation; value = -1.8%
Structure (SMILES) = COc1ccc(F)cc1C(=O)NCc1ccc(-c2nn([C@@H](C)C(F)(F)F)c(N)c2C(N)=O)cc1; target = YES1 (Homo sapiens, UniProt P07947); assay = enzyme activity; how to read = baseline: YES1 over BTK; quantity = selectivity ratio; value = 49.8
Structure (SMILES) = Nc1ncc(-c2nc(N3CCOCC3)nc(N3CCOCC3)n2)c(C(F)F)n1; target = MTOR (Homo sapiens, UniProt P42345); assay = enzyme activity, inhibitor; conditions = 10 µM; quantity = remaining activity; value = 0%
Structure (SMILES) = COC(=O)[C@@]1(O)C[C@H]2O[C@]1(C)n1c3ccccc3c3c4c(c5c6ccccc6n2c5c31)C(=O)NC4; target = MAPK3 (Homo sapiens, UniProt P27361); assay = ADP-Glo; conditions = 3.98 µM, together with: MBP substrate; quantity = kinase activity; value = 8.39% and 1.78% and 2.69%
Structure (SMILES) = O=C(O)COP(=O)(O)O; target = TPI1 (Saccharomyces cerevisiae, UniProt P00942, S211G/Y208T); assay = enzyme activity, competitive inhibitor, GPDH/NADH-coupled; conditions = pH 8.9, 25 °C, ionic strength 0.1 NaCl, together with: glyceraldehyde 3-phosphate substrate; how to read = baseline: mutant over wild type; quantity = Ki ratio; value = 6.5

Repeated from above:
Structure (SMILES) = C[N+]1(C)CCN(c2cccc(Cl)c2)CC1.[I-]; target = Nicotinic acetylcholine receptor alpha1/beta1/epsilon/delta (Mus musculus, UniProt P02716+P04756+P09690+P20782); assay = ion current, inhibitor, two-electrode voltage clamp; system = Xenopus oocytes; conditions = 30 µM, after co-application, unit not given, together with: ACh 30 µM; how to read = baseline: ACh alone; quantity = ACh response; value = 0.694 ± 0.186
Structure (SMILES) = O=C(C1CCOCC1)N1CC(=O)N2CCc3ccccc3[C@@H]2C1; target = TRPM channel TRPM_PZQ (Schistosoma mansoni, UniProt A0A5K4F0X5); assay = agonist; system = HEK293 cells transfected; how to read = baseline: (R)-praziquantel; quantity = fold change in EC50; value = ~16 fold
